Measured values pooled from the literature.
Protocols differ between the studies behind these lines.

Structure (SMILES) | test | system | conditions | how to read | quantity | value
C[C@@H](Nc1cc(F)cc(F)c1)c1cc(C(=O)N(C)C)cc2c(=O)cc(N3CCOCC3)oc12 | CTCAE v4, refers to: SIRS | patients with advanced solid tumours | oral, dose not given, phase I dose finding |  | patients discontinuing for AE | 0%
C[C@@H](c1ccc2nccn2c1)n1nnc2ncc(-c3cnn(C)c3)nc21 | refers to: Dyspnea grade ≥3 | EGFR-mutant MET-altered NSCLC | oral, dose not given, study |  | patients with treatment-related AEs | 0%
C=CC(=O)NC1CCN(c2ncc3ncnc(Nc4ccc(Oc5ccc6c(c5)ncn6C)c(C)c4)c3n2)CC1 |  | male patients | oral, dose not given, on-treatment adverse events |  | patients with Toothache | 0%
CC(C)C[C@H](NC(=O)CNC(=O)c1cc(Cl)ccc1Cl)B(O)O | refers to: Dysgeusia, all grades | newly diagnosed multiple myeloma patients | oral, dose not given, maintenance phase, new onset, cycle 17 or later |  | patients with adverse event | 0%
CCOc1c([C@H](C)n2nc(C)c3c(N)ncnc32)cc(Cl)c(F)c1[C@@H]1CNC(=O)C1 | refers to: QTcF change above 60 ms | previously treated B-cell malignancy | oral, 10 mg once daily, baseline QTcF ≤450 ms | baseline: baseline | patients | 0%
FC(F)(F)c1ccc(CNc2ccc(Cc3c[nH]c4ncc(Cl)cc34)cn2)cn1 | refers to: alanine aminotransferase increased | non-TGCT solid tumour patients | oral, 1000 mg/day, all grades |  | patients with treatment-related adverse event | 6%
C=CC(=O)Nc1cc(Nc2nccc(-c3cn(C)c4ccccc34)n2)c(OC)cc1N(C)CCN(C)C | refers to: Pain grade ≥3 | EGFR-mutant MET-altered NSCLC | oral, study |  | patients with treatment-related AEs | 0%
COc1ccc([C@@H](O)c2cc(-c3ncnc4cc(N5CCOCC5)ccc34)c(F)cc2Cl)nn1 |  | locally advanced rectal cancer patients | 250 mg, drug-related adverse events, with: capecitabine and radiotherapy |  | patients with anemia | 50%
CNC(=O)c1cc(Oc2ccc(NC(=O)Nc3cc(C(C)(C)C)nn3-c3ccc4ncccc4c3)c(F)c2)ccn1 |  | patients | oral, dose not given, cycles 1 and 2, High AUC subgroup |  | patients with cardiac disorders | 17%
Cc1cc(-c2nnc(N)nc2-c2ccc(F)cc2)cc(Cl)n1 | refers to: Nausea | other solid tumours, IO-naive | oral, 100 mg once daily, all grades |  | patients with treatment-related AE | 73.7%
Cc1cc(NC2CCN(C(=O)OC3CCN(C(=O)/C=C/CN(C)C)C3)CC2)n2ncc(C(C)C)c2n1 (stereo not shown) | Phase I dose escalation CTCAE v4.0, refers to: abdominal distension | patients with advanced solid tumours | dose not given, Total dosing any grade |  | patients with adverse event | 7%
CNC(=O)c1ccc(-c2cnc3ncc(Cc4ccc5ncccc5c4)n3n2)cc1F | refers to: Dyspnea | cancer patients | oral, dose not given, dose escalation, grade 3-4 |  | patients with adverse event | 0%
COc1cc(Nc2ncc3c(n2)-c2ccc(Cl)cc2C(c2c(F)cccc2OC)=NC3)ccc1C(=O)O | refers to: increased ALP, grade 1 | cancer patients, phase 1/2 | oral, dose not given, with: pembrolizumab |  | patients with adverse event | 25%

A few entries again:
Structure (SMILES) | test | system | conditions | how to read | quantity | value
Cc1cc(NC2CCN(C(=O)OC3CCN(C(=O)/C=C/CN(C)C)C3)CC2)n2ncc(C(C)C)c2n1 (stereo not shown) | Phase I dose escalation CTCAE v4.0, refers to: abdominal distension | patients with advanced solid tumours | dose not given, Total dosing any grade |  | patients with adverse event | 7%
CNC(=O)c1ccc(-c2cnc3ncc(Cc4ccc5ncccc5c4)n3n2)cc1F | refers to: Dyspnea | cancer patients | oral, dose not given, dose escalation, grade 3-4 |  | patients with adverse event | 0%
